Measured values collected from several papers.
A part holds a random share of what one study measured. Substitutions count along the parent as printed.

Study 1
Target: CCND1, cyclin fold, Cln2 fusion (human)
Method: yeast growth competition, sequencing
Matrix: yeast
Notes: strong parent motif
Baseline: not given
Direction: higher = stronger binding
Starting sequence: CDKN1A docking peptide (human); SKACRRLFGPVDS; partner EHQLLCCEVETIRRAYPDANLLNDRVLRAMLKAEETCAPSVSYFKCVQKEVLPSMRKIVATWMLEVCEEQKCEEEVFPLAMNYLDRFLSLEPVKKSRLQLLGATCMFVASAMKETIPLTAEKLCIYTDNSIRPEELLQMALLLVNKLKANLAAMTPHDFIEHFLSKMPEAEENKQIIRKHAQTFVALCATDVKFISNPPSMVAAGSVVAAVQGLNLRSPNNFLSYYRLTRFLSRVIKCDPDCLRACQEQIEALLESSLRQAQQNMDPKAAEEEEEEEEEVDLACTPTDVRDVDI
Change | normalised enrichment score
SKACRRDFGPVDS [L7D] | 0.0773
SMACRRLFGPVDS [K2M] | 1.97
SKACRRLAGPVDS [F8A] | -0.167
SKACRRLFGPTDS [V11T] | 3.72
SKACRRLFVPVDS [G9V] | 2.57
SKACRRLFGPMDS [V11M] | 2.83
SKACRDLFGPVDS [R6D] | 0.717
SKATRRLFGPVDS [C4T] | 0.929

Study 2
Target: Histone acetyltransferase KAT6A, winged helix 2, GST fusion (KAT6A, Homo sapiens, UniProt Q92794, residues 85-181)
Method: protein binding microarray
Form: double-stranded DNA, one strand shown
Matrix: in vitro
Tested at: not given
Notes: 8-mer, flanks averaged, mean of 2 arrays, mostly near background
Baseline: not given
Direction: higher = stronger binding
Target sequence (chain): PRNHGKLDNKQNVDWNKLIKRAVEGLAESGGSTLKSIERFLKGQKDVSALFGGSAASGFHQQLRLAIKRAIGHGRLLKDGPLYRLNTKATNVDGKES
Strand | E-score
AGCGACTC | -0.0243
GACAATCA | -0.0108
CCTTTCTC | -0.0966
TGAGGCAA | 0.033
TCGGCTAA | 0.0524
CACTGGAC | 0.12
CCCCTCGA | 0.125
GTATCGTA | 0.0319

Study 3
Target: Runt-related transcription factor 1, full length (RUNX1, Homo sapiens, UniProt Q01196-8, residues 1-480)
Method: protein-binding microarray
Form: hairpin DNA
Matrix: in vitro
Tested at: not given
Notes: whole hairpin DNA, median over replicate spots
Baseline: not given
Direction: higher = stronger binding
Strand | median fluorescence [a.u.]
GAGGCCTGTTGCGGTTTGCCTCCTGGCAAACCGCAACAGGCCTCACACTC | 9480
GAGGCCTGTCGCGGTGGGCCTCCTGGCCCACCGCGACAGGCCTCACACTC | 2200
GAGGCCTGTCGAGGTTGGCCTCCTGGCCAACCTCGACAGGCCTCACACTC | 1770
CTCAGTTCTGTGGGCCGGACTCCTGTCCGGCCCACAGAACTGAGACACTC (5mC at 28) | 1970
CTCAGTTCTGTGGGCCGGACTCCTGTCCGGCCCACAGAACTGAGACACTC (5mC at 16 28) | 1910
GAGGCCCCACCGCAACAGCCTCCTGGCTGTTGCGGTGGGGCCTCACACTC | 3460
GAGCCCTGTCGCGGTTGGCCTCCTGGCCAACCGCGACAGGGCTCACACTC (5mC at 4) | 2490
GAGGCCTGTTGCGCTTGGCCTCCTGGCCAAGCGCAACAGGCCTCACACTC (5mC at 14) | 1690

Single results of other studies
Molecule | target | assay | test system | conditions | quantity | value
LLDDGWAGE | HLA class I histocompatibility antigen, A alpha chain, allele A*80:01 (Homo sapiens, UniProt P04439) | peptide-MHC binding | peptide | concentration not given | binding | inactive

Repeated from above (study 3):
Strand | median fluorescence [a.u.]
GAGGCCTGTCGAGGTTGGCCTCCTGGCCAACCTCGACAGGCCTCACACTC | 1770
CTCAGTTCTGTGGGCCGGACTCCTGTCCGGCCCACAGAACTGAGACACTC (5mC at 28) | 1970
CTCAGTTCTGTGGGCCGGACTCCTGTCCGGCCCACAGAACTGAGACACTC (5mC at 16 28) | 1910
